{"data": "Experimental data collected from several papers", "note": "Parts stem from different laboratories: compare values within a part only. “And” joins repeats or separate records; there may be more than shown.", "sequence of UniProt P42684 (whole entry, looked up)": "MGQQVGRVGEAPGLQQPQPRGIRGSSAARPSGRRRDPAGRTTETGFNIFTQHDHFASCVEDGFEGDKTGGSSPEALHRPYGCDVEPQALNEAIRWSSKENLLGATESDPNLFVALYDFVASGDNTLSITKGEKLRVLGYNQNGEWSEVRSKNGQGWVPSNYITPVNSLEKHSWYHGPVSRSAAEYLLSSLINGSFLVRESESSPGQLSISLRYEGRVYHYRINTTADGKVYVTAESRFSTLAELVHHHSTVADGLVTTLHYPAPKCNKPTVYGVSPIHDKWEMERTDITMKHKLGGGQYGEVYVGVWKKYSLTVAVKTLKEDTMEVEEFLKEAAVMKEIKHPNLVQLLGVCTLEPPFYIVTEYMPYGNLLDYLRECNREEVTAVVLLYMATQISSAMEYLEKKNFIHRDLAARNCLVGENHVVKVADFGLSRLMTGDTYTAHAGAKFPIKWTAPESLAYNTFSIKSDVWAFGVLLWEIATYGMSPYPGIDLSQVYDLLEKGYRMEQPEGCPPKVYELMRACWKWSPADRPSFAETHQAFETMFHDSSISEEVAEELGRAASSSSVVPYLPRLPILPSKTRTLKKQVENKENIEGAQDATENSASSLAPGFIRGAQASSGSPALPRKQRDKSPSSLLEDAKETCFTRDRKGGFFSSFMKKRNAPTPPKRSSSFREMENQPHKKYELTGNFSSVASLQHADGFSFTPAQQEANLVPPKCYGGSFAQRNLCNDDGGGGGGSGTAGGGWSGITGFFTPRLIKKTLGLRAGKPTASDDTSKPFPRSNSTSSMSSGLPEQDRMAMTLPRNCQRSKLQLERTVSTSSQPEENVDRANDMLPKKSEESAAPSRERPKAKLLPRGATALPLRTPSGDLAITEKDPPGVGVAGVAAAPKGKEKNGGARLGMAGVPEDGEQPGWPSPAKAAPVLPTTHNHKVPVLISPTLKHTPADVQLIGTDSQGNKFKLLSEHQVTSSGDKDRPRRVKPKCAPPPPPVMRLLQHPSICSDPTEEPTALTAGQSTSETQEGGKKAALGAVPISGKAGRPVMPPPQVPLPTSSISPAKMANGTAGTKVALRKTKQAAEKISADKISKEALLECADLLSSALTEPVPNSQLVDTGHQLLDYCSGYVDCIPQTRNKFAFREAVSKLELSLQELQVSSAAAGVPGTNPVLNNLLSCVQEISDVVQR", "sequence of UniProt P10398 (whole entry, looked up)": "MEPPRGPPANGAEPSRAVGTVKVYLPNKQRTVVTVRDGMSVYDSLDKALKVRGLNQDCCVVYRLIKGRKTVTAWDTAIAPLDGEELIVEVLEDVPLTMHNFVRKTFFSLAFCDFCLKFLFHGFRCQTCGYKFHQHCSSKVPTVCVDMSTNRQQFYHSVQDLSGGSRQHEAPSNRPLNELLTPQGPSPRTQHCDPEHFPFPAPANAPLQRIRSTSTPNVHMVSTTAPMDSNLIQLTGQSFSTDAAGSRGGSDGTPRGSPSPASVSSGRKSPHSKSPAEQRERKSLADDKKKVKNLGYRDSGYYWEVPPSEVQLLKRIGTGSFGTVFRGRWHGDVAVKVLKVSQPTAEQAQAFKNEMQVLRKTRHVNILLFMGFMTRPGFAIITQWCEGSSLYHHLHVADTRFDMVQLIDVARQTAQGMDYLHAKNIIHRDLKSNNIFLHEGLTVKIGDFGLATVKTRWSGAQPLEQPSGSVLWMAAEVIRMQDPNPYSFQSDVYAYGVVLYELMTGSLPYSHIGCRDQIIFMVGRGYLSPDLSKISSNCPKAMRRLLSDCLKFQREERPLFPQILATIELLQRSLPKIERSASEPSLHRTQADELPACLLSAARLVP", "sequence of UniProt P46098 (whole entry, looked up)": "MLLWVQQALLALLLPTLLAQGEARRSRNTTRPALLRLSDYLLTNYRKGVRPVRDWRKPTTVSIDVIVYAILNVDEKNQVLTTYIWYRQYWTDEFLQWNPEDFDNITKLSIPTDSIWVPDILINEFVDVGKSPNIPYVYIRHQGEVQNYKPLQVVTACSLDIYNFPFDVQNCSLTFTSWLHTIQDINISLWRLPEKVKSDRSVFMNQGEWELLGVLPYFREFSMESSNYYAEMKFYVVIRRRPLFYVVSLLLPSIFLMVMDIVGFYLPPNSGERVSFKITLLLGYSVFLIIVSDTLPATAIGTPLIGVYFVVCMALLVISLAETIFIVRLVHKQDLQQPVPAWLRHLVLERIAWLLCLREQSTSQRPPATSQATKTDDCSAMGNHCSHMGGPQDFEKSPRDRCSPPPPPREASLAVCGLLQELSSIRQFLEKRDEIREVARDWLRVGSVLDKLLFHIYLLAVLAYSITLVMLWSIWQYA"}
{"data": "Block 1", "Structure (SMILES)": "CC(C)n1cnc(-c2ccc(F)cc2)c1-c1ncc(C(=O)Nc2ccc(N3CCN(C)CC3)cc2)[nH]1", "technique": "phase 2a clinical trial", "host": "patients with idiopathic pulmonary fibrosis"}
{"measured": "idiopathic pulmonary fibrosis", "dose": "dose not given", "notes": "Grade 2, all drug arms", "patients with treatment-emergent adverse events [%]": 0}
{"measured": "protein urine present", "dose": "60 mg once daily", "notes": "Grade 4", "patients with treatment-emergent adverse events [%]": 0}
{"measured": "electrocardiogram T wave abnormal", "dose": "60 mg once daily", "notes": "Grade 1", "patients with treatment-emergent adverse events [%]": 0}
{"measured": "carbon dioxide decreased", "dose": "dose not given", "notes": "Grade 4, all drug arms total", "patients with treatment-emergent adverse events [%]": 0}
{"measured": "idiopathic pulmonary fibrosis", "dose": "30 mg once daily", "notes": "Grade 2", "patients with treatment-emergent adverse events [%]": 0}
{"measured": "investigations (SOC)", "dose": "30 mg once daily", "notes": "Grade 3", "patients with treatment-emergent adverse events [%]": 0}
{"data": "Block 2", "cell line": "HaCaT", "concentration": "100 µM", "time": "18 h"}
{"Structure (SMILES)": "CN(C/C=C/C#CC(C)(C)C)Cc1cccc2ccccc12", "viability": "39.9%"}
{"Structure (SMILES)": "COc1cc(NS(=O)(=O)c2ccc(N)cc2)nc(OC)n1", "viability": "87%"}
{"Structure (SMILES)": "CO[C@H]1C[C@H](O[C@H]2[C@H](C)O[C@@H](O[C@@H]3/C(C)=C/C[C@@H]4C[C@@H](C[C@]5(C=C[C@H](C)[C@@H](C6CCCCC6)O5)O4)OC(=O)[C@@H]4C=C(C)[C@@H](O)[C@H]5OC/C(=C\\C=C\\[C@@H]3C)[C@]54O)C[C@@H]2OC)O[C@@H](C)[C@@H]1O", "viability": "18.6%"}
{"Structure (SMILES)": "Cc1cccc(N(C)C(=S)Oc2ccc3ccccc3c2)c1", "viability": "100%"}
{"Structure (SMILES)": "CN(C)CCOc1ccc(/C(=C(/CCCl)c2ccccc2)c2ccccc2)cc1", "viability": "15.7%"}
{"data": "Further values, each from its own experiment", "PIM1": "Serine/threonine-protein kinase pim-1 (PIM1, Homo sapiens, UniProt P11309)", "sequence of UniProt P11309 (whole entry, looked up)": "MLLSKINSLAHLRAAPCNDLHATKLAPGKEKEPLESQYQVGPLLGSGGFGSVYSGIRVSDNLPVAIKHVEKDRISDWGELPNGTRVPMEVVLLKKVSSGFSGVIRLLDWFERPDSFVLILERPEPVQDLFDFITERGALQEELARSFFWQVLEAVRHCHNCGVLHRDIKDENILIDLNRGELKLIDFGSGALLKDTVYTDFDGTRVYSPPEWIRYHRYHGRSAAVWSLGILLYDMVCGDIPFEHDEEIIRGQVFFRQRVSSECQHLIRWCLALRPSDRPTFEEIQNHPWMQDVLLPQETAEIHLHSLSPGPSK"}
{"SMILES": "Cc1cn(-c2cc(NC(=O)c3ccc(C)c(Nc4nccc(-c5cccnc5)n4)c3)cc(C(F)(F)F)c2)cn1", "target or system": "ABL2 (Homo sapiens, UniProt P42684)", "test": "enzyme activity, inhibitor", "conditions": "0.5 µM", "endpoint": "remaining activity", "result": "4.86%"}
{"SMILES": "Cc1cc(-n2nc(Cc3cc(F)cc(C(F)(F)F)c3)nc2C)ccc1C(N)=O", "target or system": "HTR3A (Homo sapiens, UniProt P46098)", "test": "binding, radioligand binding", "conditions": "10 µM", "endpoint": "inhibition", "result": "5.45%"}
{"SMILES": "N#Cc1c(NC(=O)c2cccc3ccccc23)sc2c1CCCC2", "target or system": "PIM1", "test": "enzyme activity, inhibitor", "conditions": "0.5 µM", "how to read": "reference: control", "endpoint": "remaining activity", "result": "105%"}
{"SMILES": "Cn1cncc1[C@@](O)(COc1ccc(C#N)cc1-c1ccc(OC(F)(F)F)cc1)c1ccc(C#N)cc1", "target or system": "HEK293T", "test": "high-content imaging", "conditions": "10 µM, 0 h", "endpoint": "cells with high Hoechst intensity", "result": "6.6% and 14.9%"}
{"SMILES": "Ic1cccc(CSc2nnc(-c3ccncc3)o2)c1", "target or system": "PIM1", "test": "enzyme activity, inhibitor", "conditions": "0.5 µM", "how to read": "reference: control", "endpoint": "remaining activity", "result": "102%"}
{"SMILES": "CCN(CC)CCNC(=O)c1c(C)[nH]c(/C=C2\\C(=O)Nc3ccc(Cl)cc32)c1C", "target or system": "ARAF (Homo sapiens, UniProt P10398)", "test": "enzyme activity, inhibitor", "conditions": "0.5 µM", "endpoint": "remaining activity", "result": "132%"}
